Measured values collected from several papers.
Compare with care: the assays were run in different laboratories. Numbers after ± are the reported error.

The relative abundance of `COc1ccccc1-c1n[nH]c2nc(NC3CCN(C(=O)Cc4ccc(F)cc4F)CC3)ncc12` is reported as 1.08 (bead binding, competition bead pull-down, item: LINJ.06.0370; Leishmania donovani extract; 10 µM; baseline: vehicle).
`COc1cccc2c1C(=O)c1c(O)c3c(c(O)c1C2=O)CC(O)(C(=O)CO)CC3OC1CC(NC(=O)OC2C=CCCC(C)(C(=O)NCC(=O)O)CC2)C(O)C(C)O1` (stereo not shown) gave a Cmax of 1960 ± 236 ng/mL (Sprague Dawley rats male, plasma; intravenous, 21.5 mg/kg/day doxorubicin equivalent, day 4).
With `CCOc1ccccc1-n1c(CN2CCNCC2)nc2ccccc2c1=O` the Cmax was 1.05 µM (C57BL/6 mouse, male, plasma; intraperitoneal, 3 mg/kg).
With `O=C(Nc1cccs1)c1cccnc1` the Cmax was 10.3 µM (mouse, brain; intravenous, 5 mg/kg, brain density 1 g/mL).
For `O=C(c1cc(Cc2n[nH]c(=O)c3ccccc23)ccc1F)N1CC(CNC2CC2)C1`, the Cmax was 602 ng/mL (male Wistar Han rat; oral, 15 mg/kg, day 1).
The Cmax of `Cc1cc(Nc2nc(C[C@@]3(C(=O)O)CCN(Cc4cccc(Cl)c4F)[C@H](C)C3)cc(C)c2F)n[nH]1` is reported as 7560 ng/mL (mouse, IMR-32 xenograft, plasma; oral, 5 mg/kg once daily).
The log LC50 of `CC(C)(C)C(=O)OCOP(=O)(OCOC(=O)C(C)(C)C)C1CCCN(O)C1=O` (stereo not shown) is reported as -4.2 log M (M14).
`CCN1CC2(COC)C(O)CC(OC)C34C5CC6(O)C(OC)C(O)C(O)(C5C6OC(=O)c5ccccc5)C(C(OC)C23)C14` (stereo not shown) gave a Cmax of 94.3 ± 14.5 ng/mL (Sprague-Dawley rat, plasma; oral, dose not given, with NADES in PCW extract).
`C/C(=N\OCCCN1CCCCC1)c1ccc(C(F)(F)F)cc1` has a Cmax of 800 ± 107 ng/mL (mouse, plasma; oral, 50 mg/kg once daily, day 7).
`O=C1NC2(CC2)COc2ncc(F)cc2[C@H]2COCCN2c2ccn3ncc1c3n2` — result for “serum total bilirubin”: 1 ± 0.4 µmol/L (Sprague-Dawley rat, female, serum; oral, 2.5 mg/kg/day, end of treatment, 4-week subacute toxicity).
With `CC[C@H](C)[C@H](NC(=O)[C@H](Cc1ccc(O)cc1)NC(=O)[C@@H](NC(=O)[C@H](CCCNC(=N)N)NC(=O)[C@@H](N)CC(=O)O)C(C)C)C(=O)N[C@@H](Cc1c[nH]cn1)C(=O)N1CCC[C@H]1C(=O)O` the Cmax was 841 ng/mL (Beagle dog both sexes, plasma; subcutaneous, 10 mg/kg/day, day 27, median).
For `O=C(CN1C(=O)C2(CCN(C(=O)c3ccc4[nH]ncc4n3)CC2)c2c(Br)cccc21)NCC(F)(F)F`, the Cmax was 309 ng/mL (C57BL/6 mouse, male, plasma; intraperitoneal, 10 mg/kg).
With `CC[C@H](C)[C@H](NC(=O)[C@H](CO)NC(=O)[C@H](Cc1ccc(O)cc1)NC(=O)[C@H](Cc1ccc(O)cc1)NC(=O)[C@H](CC(N)=O)NC(=O)CNC(=O)[C@H](CO)NC(=O)[C@H](Cc1ccc(O)cc1)NC(=O)[C@H](CO)NC(=O)[C@H](CO)NC(=O)[C@H](CC(N)=O)NC(=O)COCCOCCNC(=O)CN1CCN(CC(=O)O)CCN(CC(=O)O)CCN(CC(=O)O)CC1)C(=O)N[C@@H](CC(C)C)C(N)=O` [copper-64 labelled] the tissue uptake was 10.4 %ID/mL (dynamic PET; KPC mouse Ptf1a-CreER tdTomato, metastases; intravenous, 4.6 MBq/mouse, 0.9 min, 84 d after tamoxifen).

A few entries again:
The relative abundance of `COc1ccccc1-c1n[nH]c2nc(NC3CCN(C(=O)Cc4ccc(F)cc4F)CC3)ncc12` is reported as 1.08 (bead binding, competition bead pull-down, item: LINJ.06.0370; Leishmania donovani extract; 10 µM; baseline: vehicle).
`COc1cccc2c1C(=O)c1c(O)c3c(c(O)c1C2=O)CC(O)(C(=O)CO)CC3OC1CC(NC(=O)OC2C=CCCC(C)(C(=O)NCC(=O)O)CC2)C(O)C(C)O1` (stereo not shown) gave a Cmax of 1960 ± 236 ng/mL (Sprague Dawley rats male, plasma; intravenous, 21.5 mg/kg/day doxorubicin equivalent, day 4).
